Measurements pooled from the literature.
Protocols differ between the studies behind these lines. ± marks the error that the study gave.
Genome polyprotein NS2B-NS3 protease: Genome polyprotein, NS2B-NS3 protease (dengue virus type 2, UniProt P29990)
Chain of UniProt P30536 (whole entry, unmodified, looked up): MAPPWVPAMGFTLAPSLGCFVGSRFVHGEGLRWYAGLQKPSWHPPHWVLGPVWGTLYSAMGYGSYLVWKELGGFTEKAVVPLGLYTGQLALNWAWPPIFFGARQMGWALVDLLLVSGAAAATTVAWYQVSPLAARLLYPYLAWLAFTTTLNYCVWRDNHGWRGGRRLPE
Chain of UniProt O55242 (whole entry, looked up): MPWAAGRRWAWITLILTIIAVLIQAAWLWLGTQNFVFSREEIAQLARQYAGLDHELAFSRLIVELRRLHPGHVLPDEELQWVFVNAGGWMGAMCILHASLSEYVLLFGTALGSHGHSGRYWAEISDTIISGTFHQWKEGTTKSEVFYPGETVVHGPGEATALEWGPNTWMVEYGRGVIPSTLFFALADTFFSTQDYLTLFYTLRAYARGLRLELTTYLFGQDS
Chain of UniProt Q12908 (whole entry, looked up): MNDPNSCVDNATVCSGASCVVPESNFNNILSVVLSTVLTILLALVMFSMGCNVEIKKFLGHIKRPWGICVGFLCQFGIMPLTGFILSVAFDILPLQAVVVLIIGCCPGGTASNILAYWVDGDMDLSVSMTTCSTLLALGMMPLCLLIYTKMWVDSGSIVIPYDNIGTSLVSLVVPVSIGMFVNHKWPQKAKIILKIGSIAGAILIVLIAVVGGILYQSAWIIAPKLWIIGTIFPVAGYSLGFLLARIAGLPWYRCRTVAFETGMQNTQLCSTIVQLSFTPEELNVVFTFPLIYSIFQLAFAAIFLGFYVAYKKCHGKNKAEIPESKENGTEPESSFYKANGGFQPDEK
Chain of UniProt P02730 (whole entry, looked up): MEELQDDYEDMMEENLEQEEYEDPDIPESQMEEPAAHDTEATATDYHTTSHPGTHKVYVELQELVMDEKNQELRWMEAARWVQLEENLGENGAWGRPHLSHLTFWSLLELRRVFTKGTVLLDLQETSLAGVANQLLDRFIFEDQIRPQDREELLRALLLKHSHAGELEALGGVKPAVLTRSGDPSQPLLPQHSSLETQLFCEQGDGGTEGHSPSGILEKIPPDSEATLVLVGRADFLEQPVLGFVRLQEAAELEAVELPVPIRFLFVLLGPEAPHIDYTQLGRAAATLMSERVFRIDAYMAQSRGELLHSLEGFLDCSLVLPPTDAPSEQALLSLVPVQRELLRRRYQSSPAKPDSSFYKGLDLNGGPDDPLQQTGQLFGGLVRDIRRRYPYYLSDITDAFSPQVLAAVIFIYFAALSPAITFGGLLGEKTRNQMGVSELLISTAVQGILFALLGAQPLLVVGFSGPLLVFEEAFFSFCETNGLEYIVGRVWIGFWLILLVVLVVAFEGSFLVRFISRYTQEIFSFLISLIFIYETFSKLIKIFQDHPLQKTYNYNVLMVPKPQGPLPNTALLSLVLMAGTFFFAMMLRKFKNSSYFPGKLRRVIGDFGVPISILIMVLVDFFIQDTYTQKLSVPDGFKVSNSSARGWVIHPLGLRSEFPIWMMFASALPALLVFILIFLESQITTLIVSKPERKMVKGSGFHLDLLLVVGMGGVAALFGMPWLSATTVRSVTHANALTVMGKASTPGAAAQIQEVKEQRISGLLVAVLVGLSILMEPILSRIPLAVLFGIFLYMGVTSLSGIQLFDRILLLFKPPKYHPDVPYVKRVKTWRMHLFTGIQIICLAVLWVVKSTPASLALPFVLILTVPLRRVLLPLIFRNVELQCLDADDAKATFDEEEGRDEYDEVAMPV
Chain of UniProt O88703 (whole entry, looked up): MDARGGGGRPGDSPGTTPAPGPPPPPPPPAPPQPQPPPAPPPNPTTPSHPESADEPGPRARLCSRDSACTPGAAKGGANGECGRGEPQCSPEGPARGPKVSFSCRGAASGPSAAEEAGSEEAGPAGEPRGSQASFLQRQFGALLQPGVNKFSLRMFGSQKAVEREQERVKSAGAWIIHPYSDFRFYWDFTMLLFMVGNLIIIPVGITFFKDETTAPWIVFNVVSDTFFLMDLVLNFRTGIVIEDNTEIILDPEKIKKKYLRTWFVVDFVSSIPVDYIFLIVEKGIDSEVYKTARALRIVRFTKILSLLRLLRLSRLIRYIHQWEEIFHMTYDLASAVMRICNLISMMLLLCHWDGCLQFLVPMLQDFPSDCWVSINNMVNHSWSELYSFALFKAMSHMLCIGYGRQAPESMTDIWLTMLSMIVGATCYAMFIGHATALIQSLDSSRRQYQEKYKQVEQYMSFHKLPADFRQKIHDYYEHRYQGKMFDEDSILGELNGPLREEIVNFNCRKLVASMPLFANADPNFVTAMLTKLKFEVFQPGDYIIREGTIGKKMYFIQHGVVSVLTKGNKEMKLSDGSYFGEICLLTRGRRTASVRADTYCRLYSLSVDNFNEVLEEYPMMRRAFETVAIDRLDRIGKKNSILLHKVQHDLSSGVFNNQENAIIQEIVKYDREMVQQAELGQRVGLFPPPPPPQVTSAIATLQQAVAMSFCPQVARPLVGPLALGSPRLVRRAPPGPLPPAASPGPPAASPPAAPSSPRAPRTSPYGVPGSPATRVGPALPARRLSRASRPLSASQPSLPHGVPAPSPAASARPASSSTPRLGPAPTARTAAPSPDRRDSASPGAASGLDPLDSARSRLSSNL

| Substance | target or system | assay | system | setting | quantity | result |
| --- | --- | --- | --- | --- | --- | --- |
| CC(C)(C)c1ccc(S(=O)(=O)/C=C/C#N)cc1 | C2C12 myotubes | NF-κB reporter gene, inhibitor | – | 24 h, together with: TNF-α 10 ng/mL | IC50 | 6.31 µM |
| CC(=O)C[C@@H](c1ccccc1)c1c(O)c2ccc(O)cc2oc1=O | – | substrate, refers to: 7-hydroxywarfarin 7-glucuronide | pooled human liver microsomes | – | Ki | 1310 µM |
| CC(C)(COP(=O)(O)OP(=O)(O)OC[C@H]1O[C@@H](n2cnc3c(N)ncnc32)[C@H](O)[C@@H]1OP(=O)(O)O)[C@@H](O)C(=O)NCCC(=O)NCCSCC(=O)N[C@@H](CO)C(=O)NCC(=O)N[C@@H](CCCNC(=N)N)C(N)=O | N-alpha-acetyltransferase 40 (NAA40, Homo sapiens, UniProt Q86UY6) | inhibitor | – | – | Ki | 0.0037 ± 0.00071 µM |
| Cc1cccc(Cn2cc(COc3cc(-n4nc(C(C)(C)C)oc4=O)c(Cl)cc3Cl)nn2)c1 | Toxoplasma gondii | intracellular growth | HFF, Δppo knockout | 96 h | IC50 | 34.6 ± 8.9 µM |
| CCCCN1C(=O)C(C=CC=CC=C2C(=O)N(c3ccc(S(=O)(=O)O)cc3)N=C2C)C(=O)N(CCCC)C1=O | SLC4A1 (Homo sapiens, UniProt P02730) | chloride exchange, 36Cl flux, refers to: outward-facing iodide-loaded transporter | – | 0 °C, Dixon plot, initial binding | Ki | 0.36 ± 0.07 µM |
| CC(C)(C)c1nn(-c2cc(OCc3cn(Cc4ccc(Cl)cc4)nn3)c(Cl)cc2Cl)c(=O)o1 | Toxoplasma gondii | intracellular growth | HFF, Δppo knockout | 96 h | IC50 | 28.8 ± 6.3 µM |
| C[C@H](CCC(=O)NCC(=O)O)[C@H]1CC[C@H]2[C@@H]3[C@H](O)C[C@H]4C[C@H](OC(=O)c5cccnc5)CC[C@]4(C)[C@H]3CC[C@]12C | Ileal sodium/bile acid cotransporter (SLC10A2, Homo sapiens, UniProt Q12908) | taurocholate uptake, inhibitor | MDCK expressing SLC10A2 | – | Ki | < 25 µM |
| CC[C@H](C)[C@@H](CC(=O)N[C@@H](CCC(=O)O)CC(=O)O)NC(=O)C[C@@H](NC(=O)C[C@H](CCCN)NC(=O)C[C@H](Cc1c[nH]c2ccccc12)NC(=O)C[C@@H](NC(=O)C[C@H](CCC(=O)O)NC(=O)C[C@H](Cc1c[nH]c2ccccc12)NC(=O)C[C@@H](NC(=O)C[C@@H](N)CCCN)C(C)C)C(C)C)C(C)C | HIV-1 gp41 IQN17 | fluorescence polarization | – | fluorescein-labelled compound | Kd | 16.5 ± 0.6 µM |
| CC(=O)C(N=Nc1ccc(S(=O)(=O)Nc2ccccn2)cc1)C(=O)Nc1ccc(Cl)cc1 (stereo not shown) | Genome polyprotein NS2B-NS3 protease | enzyme activity, inhibitor | Dengue virus | pH 8.0, together with: 20 µM Pyr-RTKR-AMC | IC50 | > 10 µM |
| CC(C)(C)c1nn(-c2cc(OCc3cn(Cc4cccc(C(F)(F)F)c4)nn3)c(Cl)cc2Cl)c(=O)o1 | Toxoplasma gondii | intracellular growth | HFF, Δppo knockout | 96 h | IC50 | 21 ± 4.9 µM |
| Nc1cc(N)c(N=Nc2ccc(S(=O)(=O)Nc3nccs3)cc2)cc1N=Nc1ccc(S(=O)(=O)Nc2nccs2)cc1 | Genome polyprotein NS2B-NS3 protease | enzyme activity, inhibitor | Dengue virus | pH 8.0, together with: 20 µM Pyr-RTKR-AMC | IC50 | 2.75 µM |
| CCn1cnc2c(Nc3cccc(Cl)c3)nc(N[C@@H]3CCCC[C@@H]3N)nc21 | HeLa expressing Luc-ODC | Luc-ODC degradation, inhibitor, cycloheximide chase luciferase | – | – | IC50 | 7 ± 2 µM |
| CC(C)(C)c1nn(-c2cc(OCc3cn(Cc4ccc(Br)cc4)nn3)c(Cl)cc2Cl)c(=O)o1 | Toxoplasma gondii | intracellular growth | HFF, Δppo knockout | 96 h | IC50 | 25.8 ± 4.8 µM |
| O=c1[nH]c2ccccc2n1C1CCN(Cc2ccc(-c3nc4cc5[nH]cnc5cc4nc3-c3ccccc3)cc2)CC1 | HeLa expressing Luc-ODC | Luc-ODC degradation, inhibitor, cycloheximide chase luciferase | – | – | IC50 | 2.9 ± 0.4 µM |
| C=CCN1CCC2(C)c3cc(O)ccc3CC1C2C (single isomer, unassigned; (-)) | Sigma non-opioid intracellular receptor 1 (Sigmar1, Mus musculus, UniProt O55242) | – | – | pH 8 | IC50 | 3.95 ± 0.616 µM |
| Clc1ccc(-c2nn3c(COc4cccc(OCc5nnc6sc(-c7ccc(Cl)cc7)nn56)c4)nnc3s2)cc1 | Genome polyprotein NS2B-NS3 protease | enzyme activity, inhibitor | Dengue virus | pH 8.0, together with: 20 µM Pyr-RTKR-AMC | IC50 | > 10 µM |
| CCN(CC)C(=O)Cn1c2ccccc2c2ccccc21 | Translocator protein, A147T (TSPO, Homo sapiens, UniProt P30536) | radioligand binding | – | together with: [3H]PK11195 | Ki | 0.177 ± 0.0416 µM |
| cholecystokinin octapeptide | rat pancreatic acini | agonist | – | – | EC50 | 0.00211 ± 0.00015 µM |
| cGMP | Potassium/sodium hyperpolarization-activated cyclic nucleotide-gated channel 2, C-terminal region (Hcn2, Mus musculus, UniProt O88703) | binding, isothermal titration calorimetry | – | C-linker/CNBD tetramer, site 4 | Kd | 6.13 µM |

Excerpt of the above:
| Substance | target or system | assay | system | setting | quantity | result |
| --- | --- | --- | --- | --- | --- | --- |
| CC(=O)C(N=Nc1ccc(S(=O)(=O)Nc2ccccn2)cc1)C(=O)Nc1ccc(Cl)cc1 (stereo not shown) | Genome polyprotein NS2B-NS3 protease | enzyme activity, inhibitor | Dengue virus | pH 8.0, together with: 20 µM Pyr-RTKR-AMC | IC50 | > 10 µM |
